{"data": "Results from different studies", "note": "Compare with care: the assays were run in different laboratories. Several values in a cell are separate wells, animals, samples, runs or records. ± marks the error that the study gave."}
{"Structure (SMILES)": "CCN(C(=O)c1cc(F)ccc1Oc1nncnc1N1CCC2(C1)CN([C@H](CCCN(C)CCOC)C(C)C)C2)C(C)C", "cell line": "UMUC3", "test": "cell growth or viability", "setting": "7 days", "measurement": "GI50", "result": "> 10000 nM"}
{"Structure (SMILES)": "COC(=O)[C@@]1(C)C=C(C(=O)Nc2cccc(C(=O)Nc3ccc(Nc4nccc(-c5cccnc5)n4)c(C)c3)c2)C(=O)CC1", "cell line": "SH-SY5Y MKK7 ACT", "test": "c-Jun Ser73 phosphorylation, western blot", "setting": "6 h, with: doxycycline", "measurement": "EC50", "result": "~500 nM"}
{"Structure (SMILES)": "CCOc1cncc(-c2ccc(NC(=O)C3(c4ccnc(NS(=O)(=O)C5CC5)n4)CCOCC3)nc2)n1", "cell line": "JURL-MK2", "test": "cell proliferation, CellTiter-Glo", "setting": "72 h, myeloid haematological cancer", "measurement": "IC50", "result": "649 nM"}
{"Structure (SMILES)": "CCN(CC)CC(=O)Nc1cccc(-n2cc(-c3ccc4ccc(-c5cn(-c6cccc(NC(=O)CN(CC)CC)c6)nn5)cc4c3)nn2)c1", "cell line": "RCC4", "test": "PCR angiogenesis array, measured: TYMP", "setting": "5 x IC50, 6 h, normoxia", "scale": "baseline: untreated", "measurement": "fold regulation", "result": "-1.24 fold"}
{"Structure (SMILES)": "CN(C)c1ccc(-n2cc(COC(=O)[C@]3(C)C=C(C(=O)OC(C)(C)C)C(=O)CC3)nn2)cc1", "cell line": "HeLa", "test": "quantitative western blot", "setting": "concentration not given, 7 (unit not given), with: EGF", "measurement": "pERK/ERK ratio", "result": 0.19}
{"Structure (SMILES)": "O=C(O)C1OC(Oc2c(-c3ccccc3)oc3ccccc3c2=O)C(O)C(O)C1O (stereo not drawn)", "cell line": "MDCKII-UGT1A1/MRP2 cells", "test": "glucuronide efflux, substrate", "measurement": "Jmax", "result": "11 ± 0.76 pmol/mg/min"}
{"Structure (SMILES)": "CC(C)c1ccc(N(C)c2ccc3c(c2)OCC[C@H]3CNc2cnccc2C(=O)O)cc1", "cell line": "NCI-H596", "test": "cell growth or viability, ATP luminescence", "setting": "7 days", "measurement": "IC50", "result": "≥ 10000 nM"}
{"Structure (SMILES)": "Cc1ncsc1-c1ccc(C(C)NC(=O)C2CC(O)CN2C(=O)C(NC(=O)CCCCCCCCCCN2CCCC(Nc3ncc(Cl)c(Nc4ccccc4S(=O)(=O)C(C)C)n3)C2)C(C)(C)C)cc1 (stereo not drawn)", "cell line": "22Rv1", "test": "RNA-seq, measured: ZC3HC1 mRNA", "setting": "concentration not given", "scale": "baseline: DMSO", "measurement": "log2 fold change", "result": -1.19}
{"Structure (SMILES)": "COc1cc(C(=O)N2CC[C@@H](O)[C@@H](N)C2)cc2nc(-c3cc4cccnc4n3CC3CC3)n(C)c12", "cell line": "human neutrophils", "test": "protein citrullination, inhibitor, flow cytometry, measured: citrullinated histone H3", "setting": "3.16 µM, with: ionomycin", "measurement": "inhibition", "result": "81.6% and 58.3% and 79.3% and 72.2%"}
{"Structure (SMILES)": "CC(C)n1nc(C(F)F)cc1C(=O)Nc1ccc([C@H]2[C@@H](O)CCCc3cncn32)c(-c2ccccc2)c1", "cell line": "BRD4-HiBiT cells", "test": "BRD4 degradation rescue, inhibitor", "setting": "24 h, 50% degradation rescued, with: dBET6 500 nM", "measurement": "EC50", "result": "48.2 nM"}
{"Structure (SMILES)": "O=C(C[Se]C(=O)c1ccc2ccccc2n1)Nc1cccc(C(F)(F)F)c1", "cell line": "NCI60 colon subpanel", "test": "NCI60 five-dose screen", "measurement": "GI50", "result": "4760 nM"}
{"Structure (SMILES)": "CN(C)CCN1CCN(c2ccc3nc(-c4ccc5nc(-c6ccc(C(F)(F)F)cc6)[nH]c5c4)[nH]c3c2)CC1", "cell line": "SN12C", "test": "SRB", "setting": "10 µM, 48 h", "measurement": "growth percent", "result": "64.4%"}
{"Structure (SMILES)": "CC(=O)N[C@@H](Cc1ccc(O)cc1)C(=O)N1CSC[C@H]1C(=O)N[C@@H](C)C(=O)N[C@@H](CC(=O)O)C(=O)COC(=O)c1c(C)cccc1C", "cell line": "THP-1 cells expressing FKBP-caspase-11", "test": "pyroptosis, inhibitor", "setting": "concentration not given, with: B/B dimerizer", "measurement": "LDH release", "result": "49.4% and 42.8% and 45.4%"}
{"Structure (SMILES)": "CNS(=O)(=O)Nc1nccc(Cc2c(C)c3ccc(Oc4ncccc4F)cc3oc2=O)c1F", "cell line": "SK-LU-1", "test": "cell viability", "setting": "7 days", "measurement": "IC50", "result": "359 nM"}
{"Structure (SMILES)": "COC(=O)c1cc(NC2=NC(=O)C(=Cc3ccc(N(C)C)cc3)S2)ccc1OC(C)=O", "cell line": "MCF7", "test": "GC-MS, measured: Cholesterol", "setting": "1 µM", "scale": "baseline: DMSO", "measurement": "metabolite level", "result": "0.67 fold change"}
{"Structure (SMILES)": "CCn1nc(Cl)c2c1-c1cnc(N)c(c1)O[C@H](C)c1cc(F)ccc1-c1nn(C)cc1C2", "cell line": "Ba/F3 EML4-ALK v1", "test": "cell viability", "measurement": "Hill slope", "result": 2.13}
{"Structure (SMILES)": "O=C(C[Se]C(=O)c1cc2ccccc2[nH]1)Nc1cccc(C(F)(F)F)c1", "cell line": "NCI60 colon subpanel", "test": "NCI60 five-dose screen", "measurement": "mean TGI", "result": "6450 nM"}
{"Structure (SMILES)": "NC(Cc1ccccc1)C(=O)N1CC(=Cc2ccc(Cl)c(Cl)c2)C(=O)C(=Cc2ccc(Cl)c(Cl)c2)C1 (stereo not drawn)", "cell line": "BRD4-HiBiT cells", "test": "BRD4 degradation rescue, inhibitor", "setting": "4 h, with: dBET6 500 nM", "measurement": "EC50", "result": "1970 nM"}
{"Structure (SMILES)": "COc1ccc2c(c1)c(CC(=O)[Se]CC(=O)Nc1cccc(C(F)(F)F)c1)c(C)n2C(=O)c1ccc(Cl)cc1", "cell line": "NCI60 colon subpanel", "test": "cell growth", "setting": "10 µM, 48 h, one-dose", "measurement": "mean growth percent", "result": "-55.5%"}
{"Structure (SMILES)": "CO[C@@H]1[C@@H](OC(N)=O)[C@@H](O)[C@H](Oc2ccc3c(O)c(NC(=O)c4ccc(O)c(CC=C(C)C)c4)c(=O)oc3c2C)OC1(C)C", "cell line": "DLD-1 parental", "setting": "250 µM, replicate 1", "measurement": "colony count", "result": 0.1}
{"Structure (SMILES)": "CN1CC[C@@H](COc2cnc(C#N)cc2-c2ccn3nc(NC(=O)C4CC4)cc3c2)C1", "cell line": "human monocyte-derived macrophages", "test": "cytokine release increase, measured: IL-10", "setting": "with: LPS", "measurement": "EC50", "result": "570 nM"}
{"Structure (SMILES)": "O=C(C[Se]C(=O)C12CC3CC(CC(C3)C1)C2)Nc1cccc(C(F)(F)F)c1", "cell line": "NCI60 colon subpanel", "test": "cell growth", "setting": "10 µM, 48 h, one-dose", "measurement": "mean growth percent", "result": "25.4%"}
{"Structure (SMILES)": "CCCC(CCC)C(=O)OCc1cn(-c2cc3ccccc3oc2=O)nn1", "cell line": "LOX IMVI", "test": "NCI60 single dose", "setting": "10 µM", "measurement": "growth", "result": "94.7%"}
{"Structure (SMILES)": "COc1ccccc1-c1ccncc1C(=O)Nc1nnc(OCc2ccc(Cl)cc2)s1", "cell line": "Brca1 Δ11/Δ11 MEFs with sgGFP", "setting": "5 µM, 500 cells/well", "measurement": "colony survival", "result": "58.1% and 109% and 67.5%"}
{"Structure (SMILES)": "Cn1ncc(-c2ccc3c(=O)[nH]nc(CN)c3c2)c1-c1c(F)c(Cl)cc(OC2CC2)c1C#N", "cell line": "UMUC3", "test": "cell viability, inhibitor, CellTiter-Glo", "setting": "120 h, baseline-subtracted", "measurement": "IC50", "result": "160 nM"}
{"Structure (SMILES)": "Cn1ncc2cc(-c3cncc(Cl)c3N3CCC4(CCNC4=O)CC3)ccc21", "cell line": "LS174T", "test": "gene expression, microarray, measured: PFKFB4 mRNA", "setting": "concentration not given, 24 h", "scale": "baseline: untreated cells", "measurement": "log2 fold change", "result": 2.26}
{"Structure (SMILES)": "C#CCCCC(F)/C=C/C(=O)NC1(c2ccc(-c3nc4ccn5c(=O)[nH]nc5c4cc3-c3ccccc3)cc2)CCC1 (stereo not drawn)", "cell line": "MDA-MB-468", "test": "flow cytometry PI", "setting": "EC60, 72 h", "measurement": "sub-G0 cells", "result": "0.9%"}
{"Structure (SMILES)": "COc1cccc(OC)c1-c1cc(C(=O)NC2(C(=O)O)C3CC4CC(C3)CC2C4)nn1-c1ccc(C(=O)N(C)CCCN(C)CCCN(C)C(=O)[C@H](CCCCNC(=O)[C@H](CC(C)C)NC(=O)C2OC2C(=O)O)NC(=O)CN2CCN(CC(=O)[O-])CCN(CC(=O)[O-])CCN(CC(=O)[O-])CC2)cc1C(C)C.[177Lu+3] (mixture of isomers)", "cell line": "HT-29", "setting": "concentration not given, 30 min", "scale": "baseline: added activity", "measurement": "surface-bound fraction", "result": "3.91 ± 0.21%"}
{"Structure (SMILES)": "CSC(=S)N/N=C(\\C)c1ccc(Nc2nnc(-c3ccc(Cl)cc3)c3ccccc23)cc1", "cell line": "MCF7", "test": "cell growth or viability, MTT", "setting": "0.312 µM", "measurement": "cell death", "result": "76.1%"}
{"Structure (SMILES)": "CCCc1cc(=O)nc(SCC(=O)N(C)c2ccccc2)[nH]1", "cell line": "cells, COS-1, expressing proMMP-9", "test": "cell migration, 2D collagen dot migration", "setting": "50 µM, 18 h", "measurement": "inhibition", "result": "2 ± 6%"}
{"Structure (SMILES)": "CNC(=O)CCN(Cc1ccc(C(F)F)cc1)C(=O)c1cc2c(OC)ccc(-c3ccc(=O)n(C)c3)c2s1", "cell line": "murine AML cells", "test": "BRD4 chromatin occupancy, ChIP-seq, measured: BRD4 peak", "setting": "concentration not given, chrX:93416871-93424332", "scale": "baseline: drug over DMSO", "measurement": "log2 fold change", "result": -3.03}
{"Structure (SMILES)": "c1ccc2c(Cc3[nH]c4ccccc4c3Cc3c[nH]c4ccccc34)c[nH]c2c1", "cell line": "human monocytes", "setting": "5 µM", "scale": "baseline: DMSO", "measurement": "IL-6 induction", "result": "increased"}
{"Structure (SMILES)": "O=C(Nc1nnc2c1c(-c1ccc(Cl)cc1)nc1sc(=Cc3ccco3)c(=O)n12)c1ccccc1 (mixture of isomers)", "cell line": "Malme-3M", "test": "SRB", "setting": "10 µM, NCI60 single-dose screen", "scale": "baseline: untreated", "measurement": "cell growth", "result": "77.8%"}
{"Structure (SMILES)": "O=C(N1CCCC1)n1cc(-c2ccc(-c3ccccc3)cc2)nn1", "cell line": "mouse T cells", "test": "N-terminal labelling proteomics, measured: Paip2b N-terminal peptide", "setting": "0.001 µM, 6 h", "scale": "baseline: DMSO", "measurement": "SILAC ratio per peptide", "result": "0.95 and 0.97"}
{"Structure (SMILES)": "N#Cc1cccc(/C=C/C(=O)c2ccc(O)cc2)c1", "cell line": "U-87 MG", "test": "measured: GPR137C", "setting": "concentration not given", "scale": "baseline: untreated", "measurement": "fold change", "result": 29.7}
{"Structure (SMILES)": "CN1CCCNC(=O)c2cccc(c2)C(=O)NCCCN(C)CCCNc2cccc3c2C(=O)c2cccc(c2C3=O)NCCC1", "cell line": "SAS", "test": "RNA-Seq, measured: FANCL mRNA", "setting": "1 µM, 6 h", "scale": "baseline: untreated cells", "measurement": "log2 fold change", "result": -0.967}
{"note": "Excerpt of the above:"}
{"Structure (SMILES)": "COc1cc(C(=O)N2CC[C@@H](O)[C@@H](N)C2)cc2nc(-c3cc4cccnc4n3CC3CC3)n(C)c12", "cell line": "human neutrophils", "test": "protein citrullination, inhibitor, flow cytometry, measured: citrullinated histone H3", "setting": "3.16 µM, with: ionomycin", "measurement": "inhibition", "result": "81.6% and 58.3% and 79.3% and 72.2%"}
{"Structure (SMILES)": "CC(=O)N[C@@H](Cc1ccc(O)cc1)C(=O)N1CSC[C@H]1C(=O)N[C@@H](C)C(=O)N[C@@H](CC(=O)O)C(=O)COC(=O)c1c(C)cccc1C", "cell line": "THP-1 cells expressing FKBP-caspase-11", "test": "pyroptosis, inhibitor", "setting": "concentration not given, with: B/B dimerizer", "measurement": "LDH release", "result": "49.4% and 42.8% and 45.4%"}
